Experimental data of several laboratories.
Numbers after ± are the reported error.

Structure (SMILES)	test	system	conditions	how to read	measurement	value
COc1cc2c3c(n(CCCNC(C)C)c(=O)c2cc1OC)-c1nc2c(cc1C3=O)OCO2		male CD1 mouse, plasma	intravenous, 1 mg/kg		dose-normalized AUC(0-t)	143 ng·h/mL
Cc1cc(-c2nccc3c2ccn3CC(=O)Nc2ccc(-c3cnccn3)cn2)ccn1		human	SAD part, single 7 mg dose		subjects with Nausea TEAEs	0%
COc1ccc2c(c1)CN(C(=O)CCN1CCC(Cc3ccccc3)CC1)CC[S@@+]2[O-]	telemetry	conscious male beagle dogs	intravenous, 4 mg/kg, 2 h		QT interval	244 ± 17 ms
OC[C@H]1O[C@@H](c2ccc(F)c(Cc3cc4ccccc4s3)c2)[C@H](O)[C@@H](O)[C@@H]1O		Japanese patients, type 1 diabetes	oral, 25 mg/day, onset day 4	relative to: patients	hypoglycaemia-related adverse event	2%
O=C(O)c1cccc(C(=O)O)c1		betaine/glycerol DES-water	DES mass fraction 0.20		apparent dissolution enthalpy	5.92 kcal/mol
C[C@@]1(c2cc(NC(=O)c3ccc(C#N)cn3)ccc2F)C=CSC(N)=N1		elderly humans, both sexes, plasma	oral, 30 mg single dose		dose-normalised Cmax	4.93 ng/mL
Nc1nc2c(nc([N+](=O)[O-])n2[C@@H]2O[C@H](CO)[C@@H](O)[C@H]2O)c(=O)[nH]1	depurination, RP-HPLC	citrate-phosphate buffer 0.5 mM	1240 min, pH 7, 37 °C		nucleoside remaining fraction	0.506
C=CC(=O)N(C)CCOc1c(N)ncnc1-c1cc(F)cc(NC(=O)c2ccc(C3CC3)cc2F)c1C		human	oral, 20 mg, day 7, geometric mean, together with: ritonavir		AUC(0-inf) per dose	19.9 ng·h/mL/mg
C=CCN1CC(=O)N2[C@@H](Cc3ccc(O)cc3F)C(=O)N(Cc3cccc(N4CC(N5CCN(CC)CC5)C4)n3)C[C@@H]2N1C(=O)NCc1ccccc1		advanced solid tumour patients	oral, 15 mg twice daily, grade ≥3, dose-escalation		treatment-related ALT increased	0%
CC(C)(C)c1ccc(O)c(CN(Cc2cc(C(C)(C)C)ccc2O)C2CCC(NC(N)=O)CC2)c1 (stereo not shown)		mouse plasma	2000 ng/mL, time not given, freeze-thaw, 3 cycles, -20 °C		recovery	94.9 ± 0.51%
COc1ccc(NC(=O)c2cnc(N3CCN(c4ccccn4)CC3)nc2N)cc1		male rhesus monkey, venous plasma	intravenous, 105 MBq, 30 min		parent fraction	12%
C=CCn1c(=O)c2cnc(Nc3ccc(N4CCN(C)CC4)cc3)nc2n1-c1cccc(C(C)(C)O)n1		human, plasma	oral, across treatment cohorts		Tmax	1.9 to 3 h
NC1(C(=O)N[C@@H](CCO)c2ccc(Cl)cc2)CCN(c2nc[nH]c3nccc2-3)CC1		human mCRPC patients	oral, twice daily, 4/7 days, grade 3/4, treatment-related, together with: enzalutamide 160 mg daily		systemic inflammatory response syndrome incidence	0%
CN[C@@H](C)C(=O)N[C@H]1CN(S(=O)(=O)c2cccc(S(=O)(=O)N3CC[C@H]4CC[C@@H](C(=O)NC(c5ccccc5)c5ccccc5)N4C(=O)[C@@H](NC(=O)[C@H](C)NC)C3)c2)CC[C@H]2CC[C@@H](C(=O)NC(c3ccccc3)c3ccccc3)N2C1=O	LC-MS/MS	human, advanced solid tumours, plasma	intravenous, 0.6 mg weekly, day 1		AUC(0-t)	16.1 ± 2.68 ng·h/mL
CCCCOc1ccc([C@H]2CC[C@H](CCC)CC2)c(F)c1F		rat, fetus	10 ng/mL in perfusate, low dose, mixture of 21 LCMs		fetal accumulation	0.737 ± 0.753 ng/g
O=C(OC(C(F)(F)F)C(F)(F)F)N1CCN(Cc2cccc(Oc3ccccc3)c2)CC1	PET blocking study	rhesus monkey, brain Pons	0.01 mg/kg, compound pretreatment, together with: [18F]T-401 tracer		Ktrans	0.0043 min⁻¹
COc1ccc2[nH]c([S+]([O-])Cc3ncc(C)c(OC)c3C)nc2c1 (stereo not shown)		healthy Chinese volunteers, plasma	oral, 20 mg, fasted, CYP2C19 rapid metabolizers		AUC(0-inf)	233 ng·h/mL
COc1cc(N2CCC(N3CCN(C)CC3)CC2)ccc1Nc1ncc(Cl)c(Nc2ccccc2P(C)(C)=O)n1		healthy subjects, plasma	ex vivo, mean		bound fraction	0.0883
O=C(c1cccnc1-c1ccncc1)N1CCC(O)(Cc2ccccc2)CC1		healthy Japanese adults, plasma	oral, 1200 mg single dose, geometric mean, PK/QTc set		Cmax	9280 ng/mL
Cl.[2H]C([2H])([2H])CC(=O)c1cnc(NC(=O)C2CC2)cc1Nc1cccc(-c2ncn(C([2H])([2H])[2H])n2)c1OC		human, fed, plasma	oral, 25 mg, single dose, liquid formulation		Vz/F	156 L
CC(C)NCCCC[C@@H]1NC(=O)[C@H](Cc2ccc(O)cc2)NC(=O)[C@H](Cc2ccccc2)NC(=O)CC[C@H](C(=O)N[C@@H](CCCCNC(C)C)C(=O)N[C@@H](CCCCNC(=O)[C@H](CCC(=O)O)NC(=O)[C@H](CCC(=O)O)NC(=O)[C@H](CCC(=O)O)NC(=O)CN2CCN(CC(=O)O)CCN(CC(=O)O)CCN(CC(=O)O)CC2)C(N)=O)NC(=O)CNC(=O)[C@H](Cc2ccc3ccccc3c2)NC(=O)[C@@H](CCCNC(=N)N)NC1=O [gallium-68 labelled]		mouse with Daudi xenograft, blood	intravenous, 1 h		tissue uptake	0.27 %ID/g
Cc1ccc(Sc2ccccc2N2CCNCC2)c(C)c1	item: AST increased	healthy adult women	oral, 10 mg daily, 12 days		participants with TEAE	0%
CC(=O)O[C@H]1C(=O)[C@@]2(C)[C@H]([C@H](OC(=O)c3ccccc3)[C@]3(O)C[C@H](OC(=O)[C@H](O)[C@@H](NC(=O)c4ccccc4)c4ccccc4)C(C)=C1C3(C)C)[C@]1(OC(C)=O)CO[C@@H]1C[C@@H]2O	item: lymphocyte count decreased	patients with advanced solid tumours	intravenous, dose not given, grade 1 and 2, possibly related to drug		adverse event incidence	15%
O=C(N[C@H](Cc1c[nH]c2ccccc12)C(=O)Nc1ccncc1)c1ccc(-c2ccc(F)c(Cl)c2)cc1F		Swiss Webster mouse, female, lung	oral, 50 mg/kg, 2 h, 20% Kolliphor vehicle		concentration	30.8 µM
FC(F)(F)c1ccc(CNc2ccc(Cc3c[nH]c4ncc(Cl)cc34)cn2)cn1	item: Insomnia	patients with advanced solid tumours, non-TGCT cohort	oral, 1000 mg/day, grade 3 or higher		treatment-related adverse events	2%

Structure (SMILES)	test	system	conditions	how to read	measurement	value
C=CC(=O)Nc1cc(Nc2nccc(-c3cn(C)c4ccccc34)n2)c(OC)cc1N(C)CCN(C)C	storage stability	human plasma	10 d, on ice, LLOQ level		recovery	53.8%
CC(C)n1c(Nc2cccnc2)nc2cnc(Nc3ccc(N4CCN(C)CC4)cc3)nc21	item: LDL cholesterol increased	healthy male subjects	oral, 150 mg, study, together with: rifampin		subjects with adverse event	0%
COc1cc(N2CCC3(CCN(C)CC3)CC2)ccc1Nc1ncc(Cl)c(Nc2ccccc2P(C)(C)=O)n1	population PK model	human	oral, fed, final model	relative to: fasting	Ka	58.8%
CC(=O)N[C@@H](CNC(=O)c1cc(NC(=O)c2cc(NC(=O)c3nc(NC(=O)c4nccn4C)cn3C)cn2C)cn1C)CC(=O)Nc1cc(C(=O)Nc2cc(C(=O)Nc3cc(C(=O)Nc4cc(C(=O)NCCCN(C)CCCNC(=O)c5cccc(C(=O)O)c5)n(C)c4)n(C)c3)n(C)c2)n(C)c1	dynamic light scattering	0.1% DMSO in PBS	25 °C		critical aggregation concentration	4 µM
O=C(O)CCC(=O)O.[2H]C([2H])([2H])Oc1cc(C)c2[nH]ccc2c1CN1CC[C@@H](C2CC2)C[C@H]1c1ccc(C(=O)O)cc1		healthy Chinese subjects	400 mg, single ascending dose		TEAE decreased fibrinogen	0%
O=C(Nc1nc2cccc(-c3ccc(CN4CCS(=O)(=O)CC4)cc3)n2n1)C1CC1	item: nervous system disorders	human rheumatoid arthritis patients	oral, 300 mg once daily, 4 weeks, regardless of relatedness		treatment-emergent adverse events	15%
CNC(=O)c1cc(Oc2ccc(NC(=O)Nc3cc(C(C)(C)C)nn3-c3ccc4ncccc4c3)c(F)c2)ccn1	item: worst grade 3	human	oral, dose not given, cycles 1 and 2, High Cmax subgroup		patients with nervous system disorder AE	6%
CCN1/C(=C/C(C)=O)Sc2ccc(F)cc21		cynomolgus monkey	oral, 30 mg/kg, 6 h post-dose	relative to: pre-dose	PR interval change	97.3 ± 3.4%
C[C@@H]1COCCN1c1cc(C2([S@](C)(=N)=O)CC2)nc(-c2cc[nH]c3nccc2-3)n1		Japanese advanced solid tumour patients	oral, 160 mg twice daily, CTCAE grade ≥3		Pyelonephritis incidence	0%
C[C@@H](c1ncncc1F)[C@](O)(Cn1cncn1)c1ccc(F)cc1F		human	oral, 400 mg, drug interaction trial		serious TEAE	0%
N#CCNC(=O)c1ccc(-c2ccnc(Nc3ccc(N4CCOCC4)cc3)n2)cc1		healthy volunteers, plasma	oral, dose not given, together with: ritonavir multiple-dose	relative to: with ritonavir over alone	Cmax geometric mean ratio	123%
COc1ncc(-c2nc3c(n2C(C)C)[C@H](c2ccc(Cl)cc2)N(c2cc(Cl)cn(C)c2=O)C3=O)c(OC)n1	LC-MS/MS	human, plasma	oral, 30 mg, cycle 1 day 8, low-dose arm		AUC(0-last)	987 ng·h/mL
CCCC[C@H](NC(=O)[C@@H](NC(=O)[C@H](CCC(=O)O)NC(=O)CNC(=O)[C@@H](NC(=O)[C@H](Cc1ccccc1)NC(=O)[C@H](C)NC(=O)[C@H](CCCCN)NC(=O)[C@]1(C)CCCC=CCCC[C@](C)(NC(=O)[C@H](CO)NC(=O)[C@H](Cc2c[nH]cn2)NC(=O)[C@H](CC(C)C)NC(=O)[C@H](Cc2ccccc2)NC(=O)[C@H](CCCCN)NC(=O)CNC(=O)[C@@H](NC(=O)CN)[C@@H](C)CC)C(=O)N[C@@H](CCCCN)C(=O)N[C@@H](CCCCN)C(=O)N[C@@H](Cc2ccccc2)C(=O)N1)C(C)C)[C@@H](C)CC)C(=O)N[C@@H](CC(N)=O)C(=O)N[C@@H](CO)C(N)=O	HPLC C18 column				retention time	16.1 min
O=C(CCCCCCC(=O)Nc1ccc(CC[18F])cc1)NO		athymic nu/nu male mice, LNCaP xenograft, large intestine	intravenous, 1 h		tissue uptake	4.8 ± 0.9 %ID/g
CC[C@H](C)[C@H](NC(=O)[C@H](CO)NC(=O)[C@H](CCCNC(=N)N)NC(C)=O)C(=O)N[C@H]1CSSC[C@@H](C(=O)N[C@H](C(N)=O)[C@@H](C)O)NC(=O)[C@H](CCCNC(=N)N)NC(=O)[C@H](Cc2c[nH]cn2)NC(=O)[C@H](C)NC(=O)CNC(=O)[C@H](Cc2c[nH]c3ccccc23)NC(=O)[C@H](CC(=O)O)NC(=O)[C@H](CCC(N)=O)NC(=O)[C@H](Cc2ccc3ccccc3c2)NC(=O)[C@H](C(C)C)NC1=O	RP-HPLC, C18	28% acetonitrile isocratic	pH 7.4		retention factor	4.251 ± 0.006
Cc1ccc([C@@H]2O[C@H](CO)[C@@H](O)[C@H](O)[C@H]2O)cc1Cc1ccc(-c2ccc(F)cc2)s1	item: inorganic phosphorus	Japanese type 2 diabetes patients	25 mg, day 15, 24 h urine collection	relative to: baseline	urinary phosphate excretion change	0.128 mg
C[C@@H]1CCO[C@H]2Cn3cc(C(=O)NCc4ccc(F)cc4F)c(=O)c(O)c3C(=O)N12	population PK, post-hoc	children, 20 to <25 kg, plasma	oral, 30 mg dispersible tablet, 24 h, steady state, geometric mean		plasma concentration	607 ng/mL
O=C(NCCCNc1nc(Nc2cccc(CN3CCOCC3)c2)ncc1C1CC1)C1CCC1	PAMPA	PBS	5 h, pH 7.4		effective permeability	2.6 ×10⁻⁶ cm/s
CCc1cc(C(=O)NC)c2nccc(N3CCc4c(cc(Cn5ccnc5)cc4-c4cn(C)nc4C(F)(F)F)C3=O)c2c1		Sprague Dawley rat	oral, 100 mg/kg twice daily, 7 days	relative to: vehicle	brain weight change	0.58%
N#C[C@@]1(c2ccc3c(N)ncnn23)O[C@H](CO)[C@@H](O)[C@H]1O	plasma protein binding	dog plasma	100 µM		bound fraction	0.0433
C=CC(=O)N1CCC(c2ccc(C(N)=O)c(-c3ccc(Oc4ccccc4)cc3)n2)CC1	CTCAE 4.03	patients with relapsed/refractory MCL	oral, dose not given		incidence of serious GI infection	0.9%
N#Cc1ccc2c(-c3ccncc3)c(-c3ccc(F)cc3)nn2c1		CD1 mouse female	oral, 25 mg/kg		MRT	11 h
C[C@@H](Nc1cc(F)cc(F)c1)c1cc(C(=O)N(C)C)cc2c(=O)cc(N3CCOCC3)oc12		patients with advanced solid tumours	oral, 120 mg twice daily, monotherapy dose-finding, 2:5 schedule		share of patients with dose interruption	66.7%
CC(C)(C(=O)N1CCOc2c(C#N)cncc2C1)C(F)F	item: nervous system disorders	human	oral, 20 mg once daily, 14 days, multiple ascending dose		subjects with adverse event	12.5%

Some of these lines once more:
Structure (SMILES)	test	system	conditions	how to read	measurement	value
CCCC[C@H](NC(=O)[C@@H](NC(=O)[C@H](CCC(=O)O)NC(=O)CNC(=O)[C@@H](NC(=O)[C@H](Cc1ccccc1)NC(=O)[C@H](C)NC(=O)[C@H](CCCCN)NC(=O)[C@]1(C)CCCC=CCCC[C@](C)(NC(=O)[C@H](CO)NC(=O)[C@H](Cc2c[nH]cn2)NC(=O)[C@H](CC(C)C)NC(=O)[C@H](Cc2ccccc2)NC(=O)[C@H](CCCCN)NC(=O)CNC(=O)[C@@H](NC(=O)CN)[C@@H](C)CC)C(=O)N[C@@H](CCCCN)C(=O)N[C@@H](CCCCN)C(=O)N[C@@H](Cc2ccccc2)C(=O)N1)C(C)C)[C@@H](C)CC)C(=O)N[C@@H](CC(N)=O)C(=O)N[C@@H](CO)C(N)=O	HPLC C18 column				retention time	16.1 min
O=C(CCCCCCC(=O)Nc1ccc(CC[18F])cc1)NO		athymic nu/nu male mice, LNCaP xenograft, large intestine	intravenous, 1 h		tissue uptake	4.8 ± 0.9 %ID/g
COc1ccc2[nH]c([S+]([O-])Cc3ncc(C)c(OC)c3C)nc2c1 (stereo not shown)		healthy Chinese volunteers, plasma	oral, 20 mg, fasted, CYP2C19 rapid metabolizers		AUC(0-inf)	233 ng·h/mL
